# Results collected from several papers.
# Protocols differ between the studies behind these lines.
# CFTR del508-508: Cystic fibrosis transmembrane conductance regulator (CFTR, Homo sapiens, UniProt P13569, del508-508)
# UniProt P13569, sequence (whole entry, unmodified, looked up): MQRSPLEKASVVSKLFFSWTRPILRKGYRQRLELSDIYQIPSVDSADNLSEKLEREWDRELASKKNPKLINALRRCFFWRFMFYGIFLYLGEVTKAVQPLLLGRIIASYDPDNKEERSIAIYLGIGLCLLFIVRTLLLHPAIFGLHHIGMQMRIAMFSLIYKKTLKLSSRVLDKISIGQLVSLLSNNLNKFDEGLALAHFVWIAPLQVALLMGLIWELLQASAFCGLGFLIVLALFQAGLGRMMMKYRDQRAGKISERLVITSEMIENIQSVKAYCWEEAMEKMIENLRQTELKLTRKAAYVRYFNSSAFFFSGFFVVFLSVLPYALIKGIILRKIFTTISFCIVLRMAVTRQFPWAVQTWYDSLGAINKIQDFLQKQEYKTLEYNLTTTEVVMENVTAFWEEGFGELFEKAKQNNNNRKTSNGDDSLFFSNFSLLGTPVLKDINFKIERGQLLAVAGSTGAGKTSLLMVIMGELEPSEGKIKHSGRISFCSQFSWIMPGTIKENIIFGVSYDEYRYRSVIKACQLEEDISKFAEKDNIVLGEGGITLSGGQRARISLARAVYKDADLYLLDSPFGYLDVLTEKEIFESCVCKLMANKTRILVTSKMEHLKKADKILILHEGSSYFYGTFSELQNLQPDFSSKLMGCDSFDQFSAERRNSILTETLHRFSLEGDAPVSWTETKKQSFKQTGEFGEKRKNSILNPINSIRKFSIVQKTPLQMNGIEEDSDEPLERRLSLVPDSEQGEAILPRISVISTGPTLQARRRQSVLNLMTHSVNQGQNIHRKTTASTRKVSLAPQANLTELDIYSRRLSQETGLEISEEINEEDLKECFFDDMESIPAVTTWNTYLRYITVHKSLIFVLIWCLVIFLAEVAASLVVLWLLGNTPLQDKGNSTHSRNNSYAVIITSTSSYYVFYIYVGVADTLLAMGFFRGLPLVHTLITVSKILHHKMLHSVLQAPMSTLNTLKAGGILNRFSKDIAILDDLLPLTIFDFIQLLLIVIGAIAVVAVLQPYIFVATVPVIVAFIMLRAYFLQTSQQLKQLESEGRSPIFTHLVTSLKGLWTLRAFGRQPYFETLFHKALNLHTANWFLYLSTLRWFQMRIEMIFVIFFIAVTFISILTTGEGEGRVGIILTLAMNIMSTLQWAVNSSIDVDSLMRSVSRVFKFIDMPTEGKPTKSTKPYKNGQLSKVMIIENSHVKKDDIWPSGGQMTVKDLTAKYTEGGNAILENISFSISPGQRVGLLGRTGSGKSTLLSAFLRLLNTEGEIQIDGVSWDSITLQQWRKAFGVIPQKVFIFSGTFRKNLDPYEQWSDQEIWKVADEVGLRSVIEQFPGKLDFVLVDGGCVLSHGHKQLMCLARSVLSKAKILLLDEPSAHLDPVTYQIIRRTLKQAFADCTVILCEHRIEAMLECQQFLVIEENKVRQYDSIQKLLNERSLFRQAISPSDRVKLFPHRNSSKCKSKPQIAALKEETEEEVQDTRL
Compound,target,assay,system,conditions,how to read,quantity,value
C=CCn1nc(-c2sc(NC(=O)C(C)(C)C)nc2C)cc1C(=O)NCc1ccccc1,CFTR del508-508,"iodide influx, corrector, YFP quenching",FRT expressing ΔF508-CFTR and YFP-H148Q/I152L,with: forskolin 20 µM + genistein 50 µM,,Vmax,1.4 µM/s
COc1ccc(C(=O)NCCNc2nc3cc(C)cc(C)c3cc2C#N)cc1OC,CFTR del508-508,"CFTR correction, corrector, iodide influx rate",FRT expressing YFP-H148Q/I152L,"up to 25 µM, 16-20 h, 37 °C, with: forskolin 20 µM, genistein 50 µM",,Vmax,380 µM/s
CCOC(=O)c1cc(-c2sc(NC(=O)C(C)(C)C)nc2C)nn1Cc1ccccc1,CFTR del508-508,"iodide influx, corrector, YFP quenching",FRT expressing ΔF508-CFTR and YFP-H148Q/I152L,with: forskolin 20 µM + genistein 50 µM,,Vmax,2.6 µM/s
CCC(C)C(=O)Nc1nc2c(s1)-c1nc(Nc3cc(Cl)ccc3OC)sc1CCCC2 (stereo not shown),CFTR del508-508,"iodide influx, corrector, YFP halide quenching",FRT cells expressing YFP-H148Q/I152L,"16 to 20 h, 37 °C, genistein 50 µM, with: forskolin 20 µM",,Vmax,286 µM/s
Cc1cccc(Nc2ncnc3onc(-c4ccc(F)cc4)c23)c1C,CFTR del508-508,"ion current, corrector",FRT expressing CFTR ΔF508,concentration not given,reference: DMSO,Vmax iodide influx,161 µM/s
COc1ccc(NC(=O)c2cc(-c3sc(NC(=O)C(C)(C)C)nc3C)nn2Cc2cc(Cl)ccc2OC)cc1,CFTR del508-508,"iodide influx, corrector, YFP quenching",FRT expressing ΔF508-CFTR and YFP-H148Q/I152L,with: forskolin 20 µM + genistein 50 µM,,Vmax,6.1 µM/s
COc1cccc(C(=O)NCCCNc2nc3cc(C)cc(C)c3cc2C#N)c1,CFTR del508-508,"CFTR correction, corrector, iodide influx rate",FRT expressing YFP-H148Q/I152L,"up to 25 µM, 16-20 h, 37 °C, with: forskolin 20 µM, genistein 50 µM",,Vmax,134 µM/s
COc1ccc([N+](=O)[O-])cc1Nc1nc2c(s1)CCCc1nc(NC(=O)C(C)(C)C)sc1-2,CFTR del508-508,"iodide influx, corrector, YFP halide quenching",FRT cells expressing YFP-H148Q/I152L,"16 to 20 h, 37 °C, genistein 50 µM, with: forskolin 20 µM",,Vmax,485 µM/s
Cc1cc(C)c2cc(C#N)c(NCCCNC(=O)c3cccnc3)nc2c1,CFTR del508-508,"CFTR correction, corrector, iodide influx rate",FRT expressing YFP-H148Q/I152L,"up to 25 µM, 16-20 h, 37 °C, with: forskolin 20 µM, genistein 50 µM",,Vmax,140 µM/s
Cn1c(=O)c2c(-c3ccccc3)n3c(c2n(C)c1=O)C(c1ccc(Br)o1)Oc1ccc(C(=O)O)cc1-3 (stereo not shown),"CFTR (Homo sapiens, UniProt P13569)","chloride current, inhibitor, short-circuit current",FRT cells,,reference: 8,potency improvement,~10 fold
CN(C)c1ccc(Cl)cc1Nc1nc2c(s1)CCCCc1nc(NC(=O)C(C)(C)C)sc1-2,CFTR del508-508,"iodide influx, corrector, YFP halide quenching",FRT cells expressing YFP-H148Q/I152L,"16 to 20 h, 37 °C, genistein 50 µM, with: forskolin 20 µM",,Vmax,198 µM/s
COc1ccc(Cl)cc1Cn1nc(-c2sc(NC(=O)C(C)(C)C)nc2C)cc1C(=O)N1CCOCC1,CFTR del508-508,"iodide influx, corrector, YFP quenching",FRT expressing ΔF508-CFTR and YFP-H148Q/I152L,with: forskolin 20 µM + genistein 50 µM,,Vmax,7.26 µM/s
Cc1cc(C)c2cc(C#N)c(N3CCN(C(=O)c4ccccn4)CC3)nc2c1,CFTR del508-508,"ΔF508-CFTR correction, corrector",FRT,"up to 25 µM, 37 °C, with: forskolin 20 µM + genistein 50 µM",,EC50,inactive
COc1ccc(Cl)cc1Nc1nc2c(s1)CCCCc1nc(NC(=O)C3CC3)sc1-2,CFTR del508-508,"iodide influx, corrector, YFP halide quenching",FRT cells expressing YFP-H148Q/I152L,"16 to 20 h, 37 °C, genistein 50 µM, with: forskolin 20 µM",,Vmax,247 µM/s
Cc1cc(C)c2cc(C#N)c(NCCNC(=O)c3cccnc3)nc2c1,CFTR del508-508,"CFTR correction, corrector, iodide influx rate",FRT expressing YFP-H148Q/I152L,"up to 25 µM, 16-20 h, 37 °C, with: forskolin 20 µM, genistein 50 µM",,Vmax,151 µM/s
COc1ccc(Cl)cc1Nc1nc2c(s1)CCCCc1nc(N)sc1-2,CFTR del508-508,"iodide influx, corrector, YFP halide quenching",FRT cells expressing YFP-H148Q/I152L,"16 to 20 h, 37 °C, genistein 50 µM, with: forskolin 20 µM",,Vmax,592 µM/s
